# Measurements pooled from the literature.
# Lines come from different studies, so protocols differ. Several values in a cell are separate wells, animals, samples, runs or records. ± gives the spread as reported.
SMILES,cell line,test,test system,conditions,how to read,quantity,result
Cc1nc(N(C)C(=O)Cc2ccc(-c3ccccn3)cc2)sc1S(N)(=O)=O,primary human fibroblasts uninfected,live/dead staining,,48 h,,CC50,> 60 µM
C/C(O)=C(\C#N)C(=O)Nc1ccc(C(F)(F)F)cc1,EL4,,culture medium,"0.4 µM, 48 h",,free drug concentration,100 nM
CCOC(=O)c1c(C)nc(NCCCNc2ccnc3cc(Cl)ccc23)nc1-c1ccccc1,HEL,cell morphology,,,,minimum cytotoxic concentration,20 µM
CCCCCCCC[N+](CCCCCCCC)(CCCCCCCC)CCCCCCCC.[Br-],hTERT-RPTEC-OAT1,,,"concentration not given, 96-well plate",,LDH release,32.8 mU/mL and 32.9 mU/mL and 27.9 mU/mL
Nc1ccn([C@H]2CC[C@@H](CO)O2)c(=O)n1,HEL,,,,,minimum cytotoxic concentration,> 250 µM
C[C@H](NC(=O)[C@]1(Cc2ccccc2)CCN1C(=O)Oc1cccc2ccccc12)C(N)=O,HEL,cell morphology,,,,minimum cytotoxic concentration,> 100 µM
O=C(/C=C\n1cnc(-c2cc(C(F)(F)F)cc(C(F)(F)F)c2)n1)NNc1ccccn1,primary human fibroblasts uninfected,live/dead staining,,"48 h, capped at 10.00 µM",,CC50,> 10 µM
CC1(C)CCC(c2ccc(Cl)cc2)=C(CN2CCN(c3ccc(C(=O)NS(=O)(=O)c4ccc(N[C@H](CCN5CCOCC5)CSc5ccccc5)c(S(=O)(=O)C(F)(F)F)c4)cc3)CC2)C1,C2BBe1 monolayers,,,"50 % saturated solubility, 4 h, basolateral fractions 1-10, with: taurocholate/phosphatidylcholine micelles",,drug secreted with TRL,10.3 ± 6%
O=P1(C2CCCCC2)CCCCC1,HCT-116,trypan blue,,"IC50, 72 h",,viability,90.7%
CCc1c(-c2ccccc2)c(-c2ccccc2)nn1-c1ccccc1-c1cccc(OCC(=O)O)c1,mouse bone marrow macrophages,CCK-8,,"0.5 µM, 4000 cells",relative to: untreated,viability,89% and 85.1% and 85.4% and 85.7% and 81.5% and 91.8%
Cc1nc(NCCNc2ccnc3cc(Cl)ccc23)nc(-c2ccccc2[N+](=O)[O-])c1C(=O)OC(C)C,HEL,cell morphology,,,,minimum cytotoxic concentration,100 µM
Nc1ncnc2c1ncn2C1CCCC1,SW-620,CellTiter-Glo,,"up to 100 µM, 8 days",relative to: vehicle,viability,> 80%
O=C1C(O)=C([C@H]2CC[C@H](c3ccc(Cl)cc3)CC2)C(=O)c2ccccc21,THP-1 PMA-differentiated macrophages,CellTiter-Glo,,"72 h, host cell cytotoxicity",,CC50,14.3 µM
CC(C)NCC(O)c1ccc(NS(C)(=O)=O)cc1 (stereo not drawn),hiPSC-derived cardiomyocytes,,,"5 µM, decoupled state",,spike slope,no effect
CCn1cc(C(=O)O)c(=O)c2ccc(C)nc21,MDCK low-efflux cells,passive permeability,,apical to basolateral,,Papp,46 ×10⁻⁶ cm/s
CC1(C)CC(=O)c2c(C(F)(F)F)nn(-c3ccc(C(N)=O)c(N[C@H]4CC[C@H](O)CC4)c3)c2C1,primary human fibroblasts uninfected,live/dead staining,,"48 h, capped at 10.00 µM",,CC50,> 10 µM
C[C@H]1C[C@@H](N2C(=N)N[C@](C)(c3cccc(NC(=O)c4cccc(C#N)c4)c3Cl)CC2=O)CCO1,human liver microtissue,hepatotoxicity,,,,IC50,> 50 µM
CCCC1C(=O)N2C(N(C)C)=Nc3ccc(C)cc3N2C1=O (stereo not drawn),MDCK low-efflux cells,passive permeability,,apical to basolateral,,Papp,2 ×10⁻⁶ cm/s
COc1cccc(-c2n[nH]c(SCc3ccccn3)n2)c1OC,CHO-WBL,,,"100 µg/mL, 3 h, with: rat liver S9",,micronucleated binucleated cells,1.7%
Cc1nnc(C(=O)NC(C)(C)c2nc(C(=O)NCc3ccc(F)cc3)c(O)c(=O)n2C)o1,MDCK low-efflux cells,passive permeability,,apical to basolateral,,Papp,5 ×10⁻⁶ cm/s
CCCC(CCC)NC(=O)c1ccc2c(c1)OCO2,CHO-WBL,,,"1.67 mg/mL, without S9, exposure",,cells with aberrations,0%

# Some of these lines once more:
SMILES,cell line,test,test system,conditions,how to read,quantity,result
CCn1cc(C(=O)O)c(=O)c2ccc(C)nc21,MDCK low-efflux cells,passive permeability,,apical to basolateral,,Papp,46 ×10⁻⁶ cm/s
Cc1nnc(C(=O)NC(C)(C)c2nc(C(=O)NCc3ccc(F)cc3)c(O)c(=O)n2C)o1,MDCK low-efflux cells,passive permeability,,apical to basolateral,,Papp,5 ×10⁻⁶ cm/s
